Measurements of several laboratories.
Each line is one published result; not all experiments were run side by side. ± gives the spread as reported.
Seed linoleate 13S-lipoxygenase-1: Seed linoleate 13S-lipoxygenase-1 (Glycine max, UniProt P08170)
Sequence of UniProt P08170 (whole entry, looked up): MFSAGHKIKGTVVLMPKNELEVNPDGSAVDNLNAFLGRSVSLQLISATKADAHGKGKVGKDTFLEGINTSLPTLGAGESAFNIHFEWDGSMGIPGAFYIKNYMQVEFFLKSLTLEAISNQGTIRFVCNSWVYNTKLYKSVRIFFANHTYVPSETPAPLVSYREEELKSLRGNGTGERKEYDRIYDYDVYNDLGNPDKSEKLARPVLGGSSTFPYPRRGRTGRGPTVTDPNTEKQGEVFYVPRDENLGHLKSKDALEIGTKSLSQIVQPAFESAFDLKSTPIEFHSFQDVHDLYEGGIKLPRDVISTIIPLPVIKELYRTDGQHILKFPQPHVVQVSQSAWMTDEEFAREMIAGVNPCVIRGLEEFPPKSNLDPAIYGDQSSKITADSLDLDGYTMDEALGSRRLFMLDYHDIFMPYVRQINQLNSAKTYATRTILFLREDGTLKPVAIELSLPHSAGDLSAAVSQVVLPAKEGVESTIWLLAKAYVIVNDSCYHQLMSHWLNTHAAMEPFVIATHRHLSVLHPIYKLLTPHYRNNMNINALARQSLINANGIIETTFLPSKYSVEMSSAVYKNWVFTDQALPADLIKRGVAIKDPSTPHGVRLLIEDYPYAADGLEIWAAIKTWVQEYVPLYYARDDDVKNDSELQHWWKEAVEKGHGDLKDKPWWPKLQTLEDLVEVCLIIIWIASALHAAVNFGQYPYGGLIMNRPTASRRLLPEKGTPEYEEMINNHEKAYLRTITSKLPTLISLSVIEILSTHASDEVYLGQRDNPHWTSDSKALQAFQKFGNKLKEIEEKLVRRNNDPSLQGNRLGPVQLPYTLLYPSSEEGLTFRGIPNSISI
MAPK14: Mitogen-activated protein kinase 14 (MAPK14, Homo sapiens, UniProt Q16539)
Sequence of UniProt Q16539 (whole entry, looked up): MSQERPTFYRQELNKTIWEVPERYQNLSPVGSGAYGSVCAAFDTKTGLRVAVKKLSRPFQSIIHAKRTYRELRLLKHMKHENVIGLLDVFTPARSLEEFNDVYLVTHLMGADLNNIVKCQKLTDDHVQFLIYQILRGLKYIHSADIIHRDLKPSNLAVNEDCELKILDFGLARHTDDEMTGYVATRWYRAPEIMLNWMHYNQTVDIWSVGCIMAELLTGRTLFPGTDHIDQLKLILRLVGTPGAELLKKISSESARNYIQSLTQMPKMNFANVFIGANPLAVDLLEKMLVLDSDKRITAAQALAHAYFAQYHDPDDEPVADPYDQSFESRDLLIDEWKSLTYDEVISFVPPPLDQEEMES
JAK2: Tyrosine-protein kinase JAK2 (JAK2, Homo sapiens, UniProt O60674)
Sequence of UniProt O60674 (whole entry, looked up): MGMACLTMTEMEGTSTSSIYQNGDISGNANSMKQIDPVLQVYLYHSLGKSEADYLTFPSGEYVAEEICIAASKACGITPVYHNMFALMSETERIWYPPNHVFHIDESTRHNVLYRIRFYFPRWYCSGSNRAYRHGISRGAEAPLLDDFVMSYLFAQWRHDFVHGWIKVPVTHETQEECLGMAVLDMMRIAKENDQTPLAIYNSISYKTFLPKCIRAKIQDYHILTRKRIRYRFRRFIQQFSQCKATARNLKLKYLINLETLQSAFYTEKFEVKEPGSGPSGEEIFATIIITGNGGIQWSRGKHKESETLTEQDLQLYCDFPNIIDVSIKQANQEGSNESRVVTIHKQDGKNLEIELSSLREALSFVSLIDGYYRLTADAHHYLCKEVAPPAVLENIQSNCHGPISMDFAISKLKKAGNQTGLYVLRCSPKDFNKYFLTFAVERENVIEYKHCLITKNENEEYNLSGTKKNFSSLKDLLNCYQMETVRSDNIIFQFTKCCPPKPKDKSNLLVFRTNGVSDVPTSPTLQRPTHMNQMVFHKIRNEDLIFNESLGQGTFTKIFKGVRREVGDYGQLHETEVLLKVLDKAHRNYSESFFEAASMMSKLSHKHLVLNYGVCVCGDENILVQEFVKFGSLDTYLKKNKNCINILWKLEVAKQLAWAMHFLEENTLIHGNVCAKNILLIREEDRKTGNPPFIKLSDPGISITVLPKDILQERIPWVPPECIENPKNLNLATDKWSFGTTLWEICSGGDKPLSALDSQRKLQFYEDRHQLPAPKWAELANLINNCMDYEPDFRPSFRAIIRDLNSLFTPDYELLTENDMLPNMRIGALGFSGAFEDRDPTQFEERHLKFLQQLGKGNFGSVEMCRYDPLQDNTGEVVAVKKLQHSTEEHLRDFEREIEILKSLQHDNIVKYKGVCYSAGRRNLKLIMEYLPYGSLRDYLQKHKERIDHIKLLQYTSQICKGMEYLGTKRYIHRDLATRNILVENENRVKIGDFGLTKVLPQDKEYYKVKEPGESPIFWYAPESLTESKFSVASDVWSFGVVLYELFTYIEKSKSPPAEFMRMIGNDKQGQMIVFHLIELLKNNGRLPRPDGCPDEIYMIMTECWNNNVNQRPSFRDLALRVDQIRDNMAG
TDP1: Tyrosyl-DNA phosphodiesterase 1 (TDP1, Homo sapiens, UniProt Q9NUW8)
Sequence of UniProt Q9NUW8 (whole entry, looked up): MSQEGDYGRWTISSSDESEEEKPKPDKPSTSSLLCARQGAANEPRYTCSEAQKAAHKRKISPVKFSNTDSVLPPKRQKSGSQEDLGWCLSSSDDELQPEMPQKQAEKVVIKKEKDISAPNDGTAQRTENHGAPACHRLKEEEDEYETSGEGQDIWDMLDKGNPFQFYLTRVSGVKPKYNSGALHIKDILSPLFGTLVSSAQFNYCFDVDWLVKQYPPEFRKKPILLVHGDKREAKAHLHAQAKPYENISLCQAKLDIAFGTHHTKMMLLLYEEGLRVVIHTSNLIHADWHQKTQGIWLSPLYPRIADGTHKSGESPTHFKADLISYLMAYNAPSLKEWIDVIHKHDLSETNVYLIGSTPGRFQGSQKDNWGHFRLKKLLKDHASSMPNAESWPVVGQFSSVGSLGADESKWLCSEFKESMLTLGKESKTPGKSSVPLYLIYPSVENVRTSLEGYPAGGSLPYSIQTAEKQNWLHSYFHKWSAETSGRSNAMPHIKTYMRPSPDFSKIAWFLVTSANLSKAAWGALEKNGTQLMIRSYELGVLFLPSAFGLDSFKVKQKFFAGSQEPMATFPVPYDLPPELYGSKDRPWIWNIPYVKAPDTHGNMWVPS
Sequence of UniProt C0HJB3 (whole entry, looked up): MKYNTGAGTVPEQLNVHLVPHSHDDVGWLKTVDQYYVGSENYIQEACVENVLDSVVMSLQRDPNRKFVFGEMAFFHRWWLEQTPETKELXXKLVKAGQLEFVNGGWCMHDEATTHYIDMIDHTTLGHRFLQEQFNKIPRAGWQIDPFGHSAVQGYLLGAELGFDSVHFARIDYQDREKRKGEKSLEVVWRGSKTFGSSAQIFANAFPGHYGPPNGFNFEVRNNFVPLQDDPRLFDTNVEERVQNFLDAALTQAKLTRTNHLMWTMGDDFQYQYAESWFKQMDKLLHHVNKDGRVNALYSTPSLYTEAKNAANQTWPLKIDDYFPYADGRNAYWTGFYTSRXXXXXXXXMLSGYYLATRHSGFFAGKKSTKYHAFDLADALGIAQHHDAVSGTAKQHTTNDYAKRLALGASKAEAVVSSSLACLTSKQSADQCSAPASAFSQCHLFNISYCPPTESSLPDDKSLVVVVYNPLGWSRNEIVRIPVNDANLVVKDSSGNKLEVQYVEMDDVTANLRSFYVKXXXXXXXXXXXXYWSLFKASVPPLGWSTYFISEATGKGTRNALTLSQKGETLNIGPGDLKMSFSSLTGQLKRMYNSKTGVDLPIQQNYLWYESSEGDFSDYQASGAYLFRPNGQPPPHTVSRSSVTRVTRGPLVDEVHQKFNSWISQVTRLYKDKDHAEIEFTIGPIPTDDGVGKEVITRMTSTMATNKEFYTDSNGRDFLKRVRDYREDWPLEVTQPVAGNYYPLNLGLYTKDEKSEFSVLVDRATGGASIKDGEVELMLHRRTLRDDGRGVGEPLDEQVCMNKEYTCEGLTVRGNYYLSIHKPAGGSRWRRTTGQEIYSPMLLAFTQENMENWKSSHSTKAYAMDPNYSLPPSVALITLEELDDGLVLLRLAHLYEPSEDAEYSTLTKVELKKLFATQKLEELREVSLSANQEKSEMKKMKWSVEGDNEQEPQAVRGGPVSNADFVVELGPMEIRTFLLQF
Sequence of UniProt P22411 (whole entry, looked up): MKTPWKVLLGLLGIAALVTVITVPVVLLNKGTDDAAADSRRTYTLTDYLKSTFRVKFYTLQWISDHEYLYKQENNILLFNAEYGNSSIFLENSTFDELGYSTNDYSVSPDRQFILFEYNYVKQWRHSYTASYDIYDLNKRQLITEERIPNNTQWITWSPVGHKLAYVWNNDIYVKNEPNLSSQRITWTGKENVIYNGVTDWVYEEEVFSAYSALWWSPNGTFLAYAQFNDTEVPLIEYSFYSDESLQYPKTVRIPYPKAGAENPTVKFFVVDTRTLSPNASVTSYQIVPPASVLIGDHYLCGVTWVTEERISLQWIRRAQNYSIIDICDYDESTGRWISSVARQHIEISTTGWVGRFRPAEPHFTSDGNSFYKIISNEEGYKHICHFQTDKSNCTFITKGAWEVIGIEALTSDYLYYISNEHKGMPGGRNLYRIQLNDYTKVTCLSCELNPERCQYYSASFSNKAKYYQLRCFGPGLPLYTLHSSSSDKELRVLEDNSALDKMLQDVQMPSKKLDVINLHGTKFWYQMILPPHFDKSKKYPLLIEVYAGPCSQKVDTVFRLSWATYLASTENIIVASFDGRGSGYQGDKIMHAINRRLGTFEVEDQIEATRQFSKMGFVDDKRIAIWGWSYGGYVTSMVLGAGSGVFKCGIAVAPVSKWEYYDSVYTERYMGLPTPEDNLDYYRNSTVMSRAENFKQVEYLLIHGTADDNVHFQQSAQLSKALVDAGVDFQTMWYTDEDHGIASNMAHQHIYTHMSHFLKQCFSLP
Sequence of UniProt O95749 (whole entry, looked up): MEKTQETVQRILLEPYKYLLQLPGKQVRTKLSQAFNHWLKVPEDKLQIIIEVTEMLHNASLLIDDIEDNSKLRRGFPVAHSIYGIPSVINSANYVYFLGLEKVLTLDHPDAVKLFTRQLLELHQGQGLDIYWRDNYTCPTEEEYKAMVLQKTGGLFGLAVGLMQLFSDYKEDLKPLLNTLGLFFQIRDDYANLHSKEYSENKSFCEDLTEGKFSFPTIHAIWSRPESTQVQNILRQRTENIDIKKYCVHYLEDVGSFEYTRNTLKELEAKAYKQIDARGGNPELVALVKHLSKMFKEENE

| SMILES | target | assay | system | setting | how to read | inhibition |
| --- | --- | --- | --- | --- | --- | --- |
| CCc1ccc(NC(=O)C(C)Sc2nnc(C3CCN(C(=O)Nc4ccccc4)CC3)n2CC)cc1 (stereo not shown) | Seed linoleate 13S-lipoxygenase-1 | enzyme activity, inhibitor |  | 250 µM |  | 86.6% |
| COc1cc(C(=O)NC2CCC(N3CCN(CC4CCC5(CCCC5)C4)CC3)CC2)c(F)cc1Nc1ncc2c(n1)N(C1CCCC1(F)F)CC(F)(F)C(=O)N2C (stereo not shown) | RAF proto-oncogene serine/threonine-protein kinase (RAF1, Homo sapiens, UniProt P04049) | cell-free assay, TR-FRET |  | 10 µM |  | 6.19% |
| Cn1c(=O)c2cc(C(=O)NCCCN3CCCCCC3)sc2c2ccccc21 | Geranylgeranyl pyrophosphate synthase (GGPS1, Homo sapiens, UniProt O95749) | enzyme activity |  | up to 200 µM |  | no inhibition |
| CC[C@H](C)[C@H](NC(=O)[C@H](CCCNC(=N)N)NC(=O)[C@H](CCCCN)NC(=O)[C@@H]1CCCN1C(=O)[C@@H]1CCCN1CCCN(CC[C@H](N)C(=O)O)C[C@H]1O[C@@H](n2cnc3c(N)ncnc32)[C@H](O)[C@@H]1O)C(=O)N[C@@H](C)C(N)=O | Adenosylhomocysteinase (AHCY, Homo sapiens, UniProt P23526) | enzyme activity, inhibitor |  | 10 µM |  | < 40% |
| COc1cc(OC)c2c(c1)C(=O)c1cc3oc(=O)cc(-c4ccccc4)c3c(O)c1C2=O | mushroom tyrosinase | enzyme activity |  | 25 µg/mL, together with: L-DOPA |  | 22.89 ± 0.21% |
| O=C1c2ccccc2C(=O)c2c1ccc1c2C(C(=O)Nc2ccccc2Cl)C(=O)C1c1ccccc1 (stereo not shown) | mushroom tyrosinase | enzyme activity, inhibitor, spectrophotometry |  | 100 µg/mL, together with: L-DOPA substrate |  | 64.3 ± 1.52% |
| Cc1cccc2c1NC(=O)C2(O)CC(=O)c1ccc2c(c1)OCO2 (stereo not shown) | Uncharacterized protein (Trypanosoma brucei brucei, UniProt Q386Q8) | enzyme activity, inhibitor, coupled colorimetric | Trypanosoma brucei | 100 µM |  | 13% |
| COc1cccc(CCn2c3c(c4c2-c2ccccc2C4=O)C(=O)CCC3)c1 | Multidrug resistance-associated protein 1 (ABCC1, Homo sapiens, UniProt P33527) | calcein efflux | HEK293 expressing MRP1 | 2 µM | baseline: verapamil 35 µM as 100% | inhibited |
| O=C1c2ccccc2C(=O)c2c1ccc1c2C(C(=O)Nc2ccc(Cl)cc2)C(=O)C1c1ccccc1 (stereo not shown) | mushroom tyrosinase | enzyme activity, inhibitor, spectrophotometry |  | 25 µg/mL, together with: L-DOPA substrate |  | 20.2 ± 0.11% |
| COc1ccc(CN2C[C@H](O)[C@H](O)[C@@H]2CO)cc1 | Alpha-mannosidase (Canavalia ensiformis, UniProt C0HJB3) | enzyme activity, inhibitor, absorbance |  | 2 mM |  | 4% |
| COc1c2c(cc3oc(=O)cc(-c4ccc(Cl)cc4)c13)C(=O)c1cc(C)cc(O)c1C2=O | mushroom tyrosinase | enzyme activity |  | 50 µg/mL, together with: L-DOPA |  | 73.6 ± 0.45% |
| O=C(c1ccco1)N1CCN(Cc2ccc3c(c2)OCO3)CC1 | MAPK14 | primary fragment screen |  | 0.25 mM, together with: ATP 10 µM |  | 42.1% |
| CCCCC[N+](CCCCC)(CCCCC)CCCCC | Potassium channel subfamily K member 2 (Kcnk2, Rattus norvegicus, UniProt Q920B6) | ion current, blocker, inside-out patch clamp | Xenopus oocytes | concentration not given, together with: Rb+ as permeant ion | baseline: K+ as permeant ion | no effect |
| O=C(c1ccco1)N1CCN(Cc2ccc(Br)cc2)CC1 | MAPK14 | primary fragment screen |  | 0.25 mM, together with: ATP 10 µM |  | 69.6% |
| O=C1c2ccccc2C(=O)c2c1ccc1c2C(C(=O)Nc2ccccc2)C(=O)C1c1ccccc1 (stereo not shown) | mushroom tyrosinase | enzyme activity, inhibitor, spectrophotometry |  | 25 µg/mL, together with: L-DOPA substrate |  | 10.6 ± 0.52% |
| Nc1n[nH]c(Nc2ccc(Cl)cc2)n1 | MAPK14 | primary fragment screen |  | 0.25 mM, together with: ATP 10 µM |  | -0.8% |
| C=CC(=O)Nc1cccc(-c2cnc3[nH]cc(C(=O)NC(C)(C)C)c3n2)c1 | JAK2 | enzyme activity, inhibitor |  | 0.1 µM |  | > 90% |

| SMILES | target | assay | system | setting | how to read | inhibition |
| --- | --- | --- | --- | --- | --- | --- |
| N#Cc1ccc(-c2ccc(C=NOCc3ccc4nc(-c5ccccc5)c(Nc5ccc(C(=O)O)cc5)n4c3)cc2)nc1 | TDP1 | enzyme activity, inhibitor |  | 100 µM |  | 94% |
| O=C1c2ccccc2C(=O)c2c1ccc1c2C(C(=O)Nc2ccc(Br)cc2)C(=O)C1c1ccccc1 (stereo not shown) | mushroom tyrosinase | enzyme activity, inhibitor, spectrophotometry |  | 25 µg/mL, together with: L-DOPA substrate |  | 28.75 ± 0.21% |
| CCn1c(C)c(Sc2ccc(C)cc2)c(=O)n1-c1ccccc1Cl | JAK2 | enzyme activity, inhibitor, ADP detection |  | 1 µM |  | 65.9% |
| Nc1nc(Nc2ccccc2)nc2ccccc12 | MAPK14 | primary fragment screen |  | 1 mM, together with: ATP 10 µM |  | 90% |
| CC(=O)Nc1cc(COc2c(Cl)cc(CC(N)C(=O)O)cc2Cl)c2oc(-c3ccccc3)nc2c1 (stereo not shown) | SLC43A2 (Homo sapiens, UniProt Q8N370) | leucine uptake | Xenopus oocytes | 1 and 10 µM, 30 min, together with: L-[14C]leucine 50 µM |  | no inhibition |
| Cc1cc(O)cc2c1C(=O)c1c(cc3oc(=O)cc(-c4ccc(Cl)cc4)c3c1O)C2=O | mushroom tyrosinase | enzyme activity |  | 50 µg/mL, together with: L-DOPA |  | 47.56 ± 0.22% |
| CC[C@H](C)[C@H](NC(=O)[C@@H]1CSSC[C@H](NC(=O)[C@H](Cc2ccc(O)cc2)NC(=O)CN)C(=O)N[C@@H](CO)C(=O)N[C@@H](CCCNC(=N)N)C(=O)N[C@@H](CO)C(=O)N[C@@H](Cc2ccc(O)cc2)C(=O)N2CCC[C@H]2C(=O)N2CCC[C@H]2C(=O)N[C@@H](C(C)C)C(=O)N1)C(=O)N1CCC[C@H]1C(=O)N[C@@H](CC(=O)O)C(N)=O | Mannan-binding lectin serine protease 1 (Homo sapiens, UniProt P48740) | enzyme activity, inhibitor |  | 15 µM, together with: 10 nM MASP-1 |  | 27% |
| Cc1cc(=O)oc2cc3c(c(C)c12)C(=O)c1c(O)cccc1C3=O | mushroom tyrosinase | enzyme activity |  | 50 µg/mL, together with: L-DOPA |  | 27.71 ± 0.25% |
| COc1cccc(OC)c1C(=O)N1CCN(Cc2ccccn2)CC1 | MAPK14 | primary fragment screen |  | 1 mM, together with: ATP 10 µM |  | 89.1% |
| COc1cc(OC)c2c(c1)C(=O)c1cc3oc(=O)cc(-c4ccc(Cl)cc4)c3c(O)c1C2=O | mushroom tyrosinase | enzyme activity |  | 50 µg/mL, together with: L-DOPA |  | 36.14 ± 0.32% |
| CCn1c(SC(C)C(=O)Nc2cccc(C)c2C)nnc1C1CCN(C(=O)Nc2ccccc2)CC1 (stereo not shown) | Seed linoleate 13S-lipoxygenase-1 | enzyme activity, inhibitor |  | 250 µM |  | 89.7% |
| COc1c2c(cc3oc(=O)cc(-c4ccccc4)c13)C(=O)c1cc(C)cc(O)c1C2=O | mushroom tyrosinase | enzyme activity |  | 50 µg/mL, together with: L-DOPA |  | 19.3 ± 0.26% |
| O=C(O)c1ccc(Nc2c(-c3ccc(CON=Cc4ccc(-c5cnccn5)cc4)cc3)nc3cc(-c4ccccc4)ccn23)cc1 | TDP1 | enzyme activity, inhibitor |  | 100 µM |  | 102% |
| Cc1c2c(cc3oc(=O)cc(-c4ccc(O)cc4)c13)C(=O)c1cccc(O)c1C2=O | mushroom tyrosinase | enzyme activity |  | 50 µg/mL, together with: L-DOPA |  | 34.9 ± 0.41% |
| COc1cc(O)c(C(=O)/C=C/c2ccccc2)c(O)c1OC | Dipeptidyl peptidase 4 (DPP4, Sus scrofa, UniProt P22411) | enzyme activity, inhibitor, absorbance |  | 50 µg/mL |  | 28.9% |
| Cc1cc(O)cc2c1C(=O)c1c(cc3oc(=O)cc(-c4ccccc4)c3c1O)C2=O | mushroom tyrosinase | enzyme activity |  | 50 µg/mL, together with: L-DOPA |  | 30.2 ± 0.88% |
| COc1cc(Oc2c(O)cc(C)c(Br)c2OC)c(C(=O)O)c(C)c1O | Gag-Pol polyprotein, reverse transcriptase (gag-pol, Human immunodeficiency virus 1, UniProt P03366) | enzyme activity, inhibitor, PicoGreen fluorescence |  | 10 µM |  | 4.4 ± 0.3% |

Excerpt of the above:
| SMILES | target | assay | system | setting | how to read | inhibition |
| --- | --- | --- | --- | --- | --- | --- |
| Cn1c(=O)c2cc(C(=O)NCCCN3CCCCCC3)sc2c2ccccc21 | Geranylgeranyl pyrophosphate synthase (GGPS1, Homo sapiens, UniProt O95749) | enzyme activity |  | up to 200 µM |  | no inhibition |
| CC[C@H](C)[C@H](NC(=O)[C@H](CCCNC(=N)N)NC(=O)[C@H](CCCCN)NC(=O)[C@@H]1CCCN1C(=O)[C@@H]1CCCN1CCCN(CC[C@H](N)C(=O)O)C[C@H]1O[C@@H](n2cnc3c(N)ncnc32)[C@H](O)[C@@H]1O)C(=O)N[C@@H](C)C(N)=O | Adenosylhomocysteinase (AHCY, Homo sapiens, UniProt P23526) | enzyme activity, inhibitor |  | 10 µM |  | < 40% |
| COc1cc(OC)c2c(c1)C(=O)c1cc3oc(=O)cc(-c4ccccc4)c3c(O)c1C2=O | mushroom tyrosinase | enzyme activity |  | 25 µg/mL, together with: L-DOPA |  | 22.89 ± 0.21% |
| O=C1c2ccccc2C(=O)c2c1ccc1c2C(C(=O)Nc2ccccc2Cl)C(=O)C1c1ccccc1 (stereo not shown) | mushroom tyrosinase | enzyme activity, inhibitor, spectrophotometry |  | 100 µg/mL, together with: L-DOPA substrate |  | 64.3 ± 1.52% |
| Cc1cccc2c1NC(=O)C2(O)CC(=O)c1ccc2c(c1)OCO2 (stereo not shown) | Uncharacterized protein (Trypanosoma brucei brucei, UniProt Q386Q8) | enzyme activity, inhibitor, coupled colorimetric | Trypanosoma brucei | 100 µM |  | 13% |
